# Results from different studies.
SMILES,test,test system,setting,scale,measurement,value
CNCc1ccc(-c2[nH]c3cc(F)cc4c3c2CCNC4=O)cc1,item: Dizziness,human patients,"oral, dose not given, all grades, all doses",,patients with adverse event,16.1%
CNC(=O)c1ccc(-c2cnc3ncc(Cc4ccc5ncccc5c4)n3n2)cc1F,item: blood creatinine increased,"human, expansion cohort, gastric cancer","oral, 600 mg twice daily (RP2D), all grades, any causality, CTCAE v4.0",,patients with adverse event,0%
O=C(Nc1ccc(OC(F)(F)Cl)cc1)c1cnc(N2CC[C@@H](O)C2)c(-c2ccn[nH]2)c1,"item: Lipase increase, any grade","human patients, dose-finding study","oral, sample C of sample B patients",,patients with event,47.5%
O=C(NO)c1ccc(CN(c2cnccn2)c2cnccn2)cc1,item: fatigue,human,"oral, dose not given, all dose cohorts, sample B patients",,patients with adverse event,30%
Cn1cnc2ccc(Nc3c(F)ccc(NS(=O)(=O)N4CC(F)C4)c3Cl)c(Cl)c2c1=O,"item: blurred vision, grade 1-2",human patients,"dose not given, monotherapy trial",reference: patients,patients with blurred vision,3%
Cc1ccc(C(=O)N(CCCN)C(c2nc3snc(C)c3c(=O)n2Cc2ccccc2)C(C)C)cc1 (stereo not shown),item: Pneumonia,human patients,"intravenous, dose not given, CTCAE grade ≥3, all doses",,patients with adverse events,5%
CNC(=O)c1cc(Oc2ccc(NC(=O)Nc3cc(C(C)(C)C)nn3-c3ccc4ncccc4c3)c(F)c2)ccn1,item: worst grade 1,human,"oral, dose not given, cycles 1 and 2, Medium Cmax subgroup",,patients with visual abnormality AE,33%
CCn1cc(C(=O)N2CCOCC2)c(=O)c2cc(NC3Cc4ccccc4C3)cnc21,,"human, GAD, PTSD or social anxiety disorder","dose not given, TEAE Dizziness, pooled phase trials",,patients with adverse event,3.5%
CCOc1c([C@H](C)n2nc(C)c3c(N)ncnc32)cc(Cl)c(F)c1[C@@H]1CNC(=O)C1,,human B-cell malignancy patients,"oral, all doses",,patients with ΔQTcF 30-60 ms,8.7%
COc1cc2nccc(Oc3ccc(NC(=O)c4cc5c(n(-c6ccccc6)c4=O)CCCC5=O)nc3)c2cc1OC,,"human, relapsed/refractory AML","oral, dose not given, grade ≥3, any causality, all doses",,patients with Klebsiella bacteraemia,10%

# Some of these lines once more:
SMILES,test,test system,setting,scale,measurement,value
CCn1cc(C(=O)N2CCOCC2)c(=O)c2cc(NC3Cc4ccccc4C3)cnc21,,"human, GAD, PTSD or social anxiety disorder","dose not given, TEAE Dizziness, pooled phase trials",,patients with adverse event,3.5%
